{"data": "Experimental data of several laboratories", "note": "Numbered parts are unrelated; each lists some results of a single study."}
{"data": "Set 1", "Molecule": "PhoQ, residues 284 288 289 292 302 303 TLASMF", "method": "Sort-seq", "item": "YFP reporter", "medium": "E. coli", "notes": "PhoQ-PhoP variant library", "with": "10 µM Mg2+", "reference": "high Mg2+ state", "direction": "higher = stronger signaling"}
{"target": "PhoP, residues 12 14 15 18 19 QYFSL (Escherichia coli, UniProt P23836)", "fold induction": 4.56}
{"target": "PhoP, residues 12 14 15 18 19 NYFRM (Escherichia coli, UniProt P23836)", "fold induction": 10.9}
{"target": "PhoP, residues 12 14 15 18 19 TQALL (Escherichia coli, UniProt P23836)", "fold induction": 1.83}
{"data": "Set 2", "target": "RING finger protein unkempt homolog, zinc fingers 1-6, SBP tag (UNK, Homo sapiens, UniProt Q9C0B0, residues 30-357)", "method": "RNA Bind-n-Seq", "molecule type": "RNA", "medium": "in vitro", "tested at": "100 nM", "notes": "RNA with constant flanks, vertebrate orthologous sites, ends assumed", "reference": "input RNA pool", "direction": "higher = stronger binding", "constant ends, left off below": "GGGAGUUCUACAGUCCGACGAUC … CAACAGAGGAUUGAGCAUCA", "UniProt Q9C0B0, sequence (30-357, looked up)": "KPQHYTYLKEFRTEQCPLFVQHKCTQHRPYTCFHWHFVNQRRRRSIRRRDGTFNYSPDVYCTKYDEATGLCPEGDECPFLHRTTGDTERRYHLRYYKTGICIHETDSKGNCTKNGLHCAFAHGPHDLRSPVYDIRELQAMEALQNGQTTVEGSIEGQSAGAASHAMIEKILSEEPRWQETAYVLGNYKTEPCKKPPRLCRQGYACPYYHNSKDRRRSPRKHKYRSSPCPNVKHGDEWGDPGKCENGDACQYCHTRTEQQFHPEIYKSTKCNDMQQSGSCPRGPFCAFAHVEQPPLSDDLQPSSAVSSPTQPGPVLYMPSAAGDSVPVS"}
{"Oligonucleotide": "CCCUCUGAACCCCAUAUCUUCCGUCUCAUAGUGCAGAAGUAGUCCUUUCGAUUAUAUUAUUAGUGGACUUGUUUUAAUUUUAGGGAAACUUUCAGUACAGAUAACUGUGAGCUUACAUGG", "bound/input enrichment": "2.08 ratio"}
{"Oligonucleotide": "AUUCAAACCUGUGGUACCAUGGCCUCAUGUUGAAGGAGUAGAAGUGGACUUAGAGUCUAUUAGAAGAAAAAACAAGGCGAAAAAUGAACAAGAGCGCCAUGCUGGAGGAGAUAACCAGAA", "bound/input enrichment": "0.606 ratio"}
{"Oligonucleotide": "GGCAGCCAGUGGGGGUUGUCCCCCUCCCUGGCCUUGCCUCCCCUCCCUGCCACCUGCCCCUCCUUAUUUUUUUUUAACCACCAUGUGAUUAAGGUUGGCGCUGCCUCCCCCGACCUACUC", "bound/input enrichment": "0.827 ratio"}
{"Oligonucleotide": "UCACUCUAAUUGUAAUCUGAAUAAAGUGUAACAUUCUGUAUGUAGCCUUUUAGUAUGAAAUAGACAAAUAGAAAAUGGUCCAAUUAGUUUCCUUUUUAAUAUGCUUAAAAUAAGCAGGUG", "bound/input enrichment": "1.95 ratio"}
{"Oligonucleotide": "GUUAAUGUGUUAUUUAUUGAGUAUAGUUUGUGCUAAGCAUUGUGUUCGAUUUAAAAAAAUUAGUGGAUUGACUCCACUUUGUUGUGUUGUUUUCAUUGUUGAAAAUAAAUAUAACUUUGU", "bound/input enrichment": "0.36 ratio"}
{"Oligonucleotide": "UGCAGGAAUGGCCCCCAUCCCGCCUGUUUAUUCUGUAAACUACAGCCUGUAAAUAACAUUUAGCAUUCCUAUUGUAACAAAAUUAAUUUUUAUGAAAUAAAUUAUAUUUCCUAGUCUAAU", "bound/input enrichment": "0.759 ratio"}
{"data": "Set 3", "target": "Centromere-binding protein 1, full length, N-terminal tag (CBF1, Saccharomyces cerevisiae, UniProt P17106, residues 1-351)", "method": "protein-binding microarray", "molecule type": "double-stranded DNA, one strand shown", "medium": "in vitro", "tested at": "0.8 µM", "notes": "whole 60-bp probe, no competitor", "direction": "higher = stronger binding", "constant ends, left off below": "… GTCTTGATTCGCTTGACGCTGCTG", "UniProt P17106, sequence (whole entry, looked up)": "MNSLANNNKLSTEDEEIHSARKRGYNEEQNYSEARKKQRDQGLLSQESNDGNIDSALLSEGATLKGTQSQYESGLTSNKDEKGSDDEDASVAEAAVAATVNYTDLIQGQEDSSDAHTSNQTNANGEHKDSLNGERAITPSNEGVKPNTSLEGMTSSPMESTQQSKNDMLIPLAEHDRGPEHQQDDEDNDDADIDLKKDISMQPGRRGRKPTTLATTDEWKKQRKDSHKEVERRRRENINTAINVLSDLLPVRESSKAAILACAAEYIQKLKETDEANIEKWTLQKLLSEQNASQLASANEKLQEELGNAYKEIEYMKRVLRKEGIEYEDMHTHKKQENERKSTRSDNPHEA"}
{"Oligonucleotide": "GAATACATTCCGGGTCACATGTGCCCAAATTCTTAG", "fluorescence intensity [a.u.]": 8680}
{"Oligonucleotide": "CTAACATGTGTTAATCACGCGTTGATACAATGTTTC", "fluorescence intensity [a.u.]": 1160}
{"Oligonucleotide": "GAAGATTCTTTATCAGCTGTTATATACCCATAGTAG", "fluorescence intensity [a.u.]": 807}
{"Oligonucleotide": "GAAAGAAAAGAAGGTGATGGAACCAATTTAGCTTAG", "fluorescence intensity [a.u.]": 488}
{"Oligonucleotide": "GAACGTGCATGTATGTGCGTGCATGTATGTGTGTAG", "fluorescence intensity [a.u.]": 534}
{"Oligonucleotide": "CTATAAAAAAGATGCAAAATCACGTGCTGAAAATTC", "fluorescence intensity [a.u.]": 22800}
{"data": "Set 4", "target": "Sal-like protein 4, full length isoform B (SALL4, Homo sapiens, UniProt Q9UJQ4-2, residues 1-616)", "method": "universal PBM", "molecule type": "double-stranded DNA, one strand shown", "medium": "in vitro", "tested at": "not given", "notes": "8-mer, flanks averaged, mean of replicates", "direction": "higher = stronger binding"}
{"Oligonucleotide": "AACTACAA", "E-score": 0.142}
{"Oligonucleotide": "CCTTCTGA", "E-score": 0.124}
{"Oligonucleotide": "GATGTTAC", "E-score": 0.215}
{"Oligonucleotide": "AGAAGCTA", "E-score": -0.0586}
{"Oligonucleotide": "GTAGACAA", "E-score": 0.172}
{"Oligonucleotide": "GCGCGTGA", "E-score": -0.198}
{"Oligonucleotide": "GTCAACGA", "E-score": -0.0897}
{"note": "Repeated from above (set 2):"}
{"Oligonucleotide": "AUUCAAACCUGUGGUACCAUGGCCUCAUGUUGAAGGAGUAGAAGUGGACUUAGAGUCUAUUAGAAGAAAAAACAAGGCGAAAAAUGAACAAGAGCGCCAUGCUGGAGGAGAUAACCAGAA", "bound/input enrichment": "0.606 ratio"}
{"Oligonucleotide": "GGCAGCCAGUGGGGGUUGUCCCCCUCCCUGGCCUUGCCUCCCCUCCCUGCCACCUGCCCCUCCUUAUUUUUUUUUAACCACCAUGUGAUUAAGGUUGGCGCUGCCUCCCCCGACCUACUC", "bound/input enrichment": "0.827 ratio"}
